Assay results collected from several papers.
Lines come from different studies, so protocols differ.

O=C1CCc2ccc(OCCCCN3CCN(c4cccc(Cl)c4Cl)CC3)cc2N1 — result for “adverse event incidence”: 11% (refers to: Rigidity; genotyped patients, CYP2D6 poor metabolizers; dose not given, long-acting oral or depot).
The adverse events of C[C@H]1CNCCCN1S(=O)(=O)c1cccc2cncc(F)c12 is reported as 5.6% (refers to: Headache; healthy adult men; topical ocular, 1 drop per eye twice daily, 8 days).
CC(=O)N(C)[C@H]1CCN(C(=O)c2cnc3c(c2)C[C@](C)(c2ccc(F)cc2)N3)C1: “adverse events leading to discontinuation” 0% (healthy male subjects, multiple rising dose; oral, 30 mg once daily).
Under “adverse drug reaction incidence”, Cc1nc(-c2ccc(OCC(C)C)c(C#N)c2)sc1C(=O)O is recorded as 12.8% (healthy Chinese subjects; oral, 40 mg).
CCO[C@H]1CCN(Cc2c(OC)cc(C)c3[nH]ccc23)[C@H](c2ccc(C(=O)O)cc2)C1 — result for “adverse event incidence”: 0% (refers to: abdominal discomfort; PNH patients with active haemolysis; oral, 200 mg, extension phase).
For Cc1cc(C)c(CNC(=O)c2cc(Cl)c3c(c2C)O[C@@](C)([C@H]2CC[C@H](N(C)C)CC2)O3)c(=O)[nH]1, “adverse event Alopecia” read 29.2% (relapsed/refractory NHL patients; oral, 200 mg once daily, onset after cycle 1 day 1).
C=CC(=O)N1CCC(c2ccc(C(N)=O)c(-c3ccc(Oc4ccccc4)cc3)n2)CC1 — result for “adverse event rate”: 68.8% (relapsed/refractory mantle cell lymphoma patients; oral, 150 mg once daily, part, CTCAE v4.03).
Cc1c(Cl)c(C)[n+]([O-])c(Cl)c1-c1noc(-c2cc(O)c(O)c([N+](=O)[O-])c2)n1: “adverse drug reaction incidence” 0% (refers to: Presyncope; healthy Chinese subjects; oral, 25 mg, 4 days).
O=C(c1cccnc1-c1ccncc1)N1CCC(O)(Cc2ccccc2)CC1 — result for “adverse events leading to discontinuation”: 0% (healthy Japanese adults; oral, dose not given).
Under “adverse event Asthenia”, Cc1cc(Nc2ccc(S(F)(F)(F)(F)F)cc2)n2nc(C(C)(F)F)nc2n1 is recorded as 0% (Plasmodium vivax malaria patients; oral, 600 mg).
CC(=O)O[C@H]1C(=O)[C@@]2(C)[C@H]([C@H](OC(=O)c3ccccc3)[C@]3(O)C[C@H](OC(=O)[C@H](O)[C@@H](NC(=O)c4ccccc4)c4ccccc4)C(C)=C1C3(C)C)[C@]1(OC(C)=O)CO[C@@H]1C[C@@H]2O: “adverse event incidence” 4% (refers to: Nausea; patients with advanced solid tumours; intravenous, dose not given, grade 3 and 4, possibly related to drug).
CC#CC(=O)N[C@H]1CCCN(c2c(F)cc(C(N)=O)c3[nH]c(C)c(C)c23)C1 has an adverse events of 100% (healthy volunteers; oral, 3 mg once daily, 14 days, MAD phase I).
NCCONC(=O)[C@@H]1CC[C@@H]2CN1C(=O)N2OS(=O)(=O)O — result for “adverse event incidence”: 0% (refers to: urinary red blood cells positive; healthy Chinese men; intravenous, 2 g, treatment-emergent).
CC(C)C[C@H](NC(=O)CNC(=O)c1cc(Cl)ccc1Cl)B(O)O: “adverse events all grades” 11% (newly diagnosed multiple myeloma patients; oral, dose not given, Headache, maintenance).
Under “adverse drug reactions”, C=CC[C@@H]1/C=C(\C)C[C@H](C)C[C@H](OC)[C@H]2O[C@@](O)(C(=O)C(=O)N3CCCC[C@H]3C(=O)O[C@H](/C(C)=C/[C@@H]3CC[C@@H](O)[C@H](OC)C3)[C@H](C)[C@@H](O)CC1=O)[C@H](C)C[C@@H]2OC is recorded as 22% (refers to: high blood pressure; kidney transplant recipients; oral, dose not given).

Excerpt of the above:
O=C(c1cccnc1-c1ccncc1)N1CCC(O)(Cc2ccccc2)CC1 — result for “adverse events leading to discontinuation”: 0% (healthy Japanese adults; oral, dose not given).
CC(C)C[C@H](NC(=O)CNC(=O)c1cc(Cl)ccc1Cl)B(O)O: “adverse events all grades” 11% (newly diagnosed multiple myeloma patients; oral, dose not given, Headache, maintenance).
